# Measurements pooled from the literature.
# Each numbered part is a random draw from the data of one study; scales do not carry over between parts. “And” joins repeats or separate records; there may be more than shown.
# UniProt Q9UKS7, sequence (whole entry, looked up): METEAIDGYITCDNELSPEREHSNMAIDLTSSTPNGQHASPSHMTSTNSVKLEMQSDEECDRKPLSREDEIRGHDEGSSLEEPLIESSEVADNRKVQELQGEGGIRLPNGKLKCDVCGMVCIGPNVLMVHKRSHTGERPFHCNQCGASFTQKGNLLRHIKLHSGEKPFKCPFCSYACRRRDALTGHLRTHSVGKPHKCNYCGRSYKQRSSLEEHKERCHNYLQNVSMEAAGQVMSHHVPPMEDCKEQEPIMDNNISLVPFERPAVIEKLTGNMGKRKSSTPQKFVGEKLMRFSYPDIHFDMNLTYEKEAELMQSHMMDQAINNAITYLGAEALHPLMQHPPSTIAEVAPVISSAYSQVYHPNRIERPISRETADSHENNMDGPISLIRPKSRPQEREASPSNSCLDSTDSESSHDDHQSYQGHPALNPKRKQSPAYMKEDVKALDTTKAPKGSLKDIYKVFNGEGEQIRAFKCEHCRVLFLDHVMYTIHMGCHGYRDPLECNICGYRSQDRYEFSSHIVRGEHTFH
# UniProt Q96SW2, sequence (whole entry, looked up): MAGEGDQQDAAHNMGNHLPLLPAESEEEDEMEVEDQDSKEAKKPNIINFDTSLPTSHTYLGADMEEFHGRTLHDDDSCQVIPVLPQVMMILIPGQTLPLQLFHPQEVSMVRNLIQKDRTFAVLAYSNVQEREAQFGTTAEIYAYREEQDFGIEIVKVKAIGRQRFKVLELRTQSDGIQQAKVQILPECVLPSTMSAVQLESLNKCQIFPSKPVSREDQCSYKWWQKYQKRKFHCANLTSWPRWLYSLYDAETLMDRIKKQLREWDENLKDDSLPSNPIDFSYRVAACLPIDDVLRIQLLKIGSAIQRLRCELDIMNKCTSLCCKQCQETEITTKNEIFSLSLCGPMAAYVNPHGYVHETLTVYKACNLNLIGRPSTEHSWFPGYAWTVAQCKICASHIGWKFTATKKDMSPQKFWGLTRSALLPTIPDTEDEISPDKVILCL
# UniProt Q59H18, sequence (whole entry, looked up): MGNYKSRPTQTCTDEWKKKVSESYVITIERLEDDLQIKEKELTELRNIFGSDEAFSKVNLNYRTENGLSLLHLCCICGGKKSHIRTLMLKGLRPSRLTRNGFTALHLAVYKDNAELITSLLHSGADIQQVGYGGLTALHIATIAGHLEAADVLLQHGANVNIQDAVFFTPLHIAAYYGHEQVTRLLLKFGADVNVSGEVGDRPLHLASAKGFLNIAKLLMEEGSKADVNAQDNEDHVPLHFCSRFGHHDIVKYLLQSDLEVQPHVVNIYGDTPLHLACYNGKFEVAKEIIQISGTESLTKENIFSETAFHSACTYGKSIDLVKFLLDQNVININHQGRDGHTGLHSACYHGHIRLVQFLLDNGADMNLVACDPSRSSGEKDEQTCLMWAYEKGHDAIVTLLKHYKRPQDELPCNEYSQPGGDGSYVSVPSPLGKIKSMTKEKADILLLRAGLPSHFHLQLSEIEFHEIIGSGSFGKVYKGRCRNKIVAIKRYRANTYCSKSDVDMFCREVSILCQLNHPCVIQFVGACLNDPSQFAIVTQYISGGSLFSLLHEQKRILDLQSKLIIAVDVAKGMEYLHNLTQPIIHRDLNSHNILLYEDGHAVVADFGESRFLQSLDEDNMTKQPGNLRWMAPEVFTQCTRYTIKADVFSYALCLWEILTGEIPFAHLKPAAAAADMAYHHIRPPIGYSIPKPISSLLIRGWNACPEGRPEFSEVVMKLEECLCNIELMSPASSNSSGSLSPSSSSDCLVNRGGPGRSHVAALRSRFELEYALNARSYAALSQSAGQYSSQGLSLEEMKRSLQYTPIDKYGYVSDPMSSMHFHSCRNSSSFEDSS
# UniProt O75582, sequence (whole entry, looked up): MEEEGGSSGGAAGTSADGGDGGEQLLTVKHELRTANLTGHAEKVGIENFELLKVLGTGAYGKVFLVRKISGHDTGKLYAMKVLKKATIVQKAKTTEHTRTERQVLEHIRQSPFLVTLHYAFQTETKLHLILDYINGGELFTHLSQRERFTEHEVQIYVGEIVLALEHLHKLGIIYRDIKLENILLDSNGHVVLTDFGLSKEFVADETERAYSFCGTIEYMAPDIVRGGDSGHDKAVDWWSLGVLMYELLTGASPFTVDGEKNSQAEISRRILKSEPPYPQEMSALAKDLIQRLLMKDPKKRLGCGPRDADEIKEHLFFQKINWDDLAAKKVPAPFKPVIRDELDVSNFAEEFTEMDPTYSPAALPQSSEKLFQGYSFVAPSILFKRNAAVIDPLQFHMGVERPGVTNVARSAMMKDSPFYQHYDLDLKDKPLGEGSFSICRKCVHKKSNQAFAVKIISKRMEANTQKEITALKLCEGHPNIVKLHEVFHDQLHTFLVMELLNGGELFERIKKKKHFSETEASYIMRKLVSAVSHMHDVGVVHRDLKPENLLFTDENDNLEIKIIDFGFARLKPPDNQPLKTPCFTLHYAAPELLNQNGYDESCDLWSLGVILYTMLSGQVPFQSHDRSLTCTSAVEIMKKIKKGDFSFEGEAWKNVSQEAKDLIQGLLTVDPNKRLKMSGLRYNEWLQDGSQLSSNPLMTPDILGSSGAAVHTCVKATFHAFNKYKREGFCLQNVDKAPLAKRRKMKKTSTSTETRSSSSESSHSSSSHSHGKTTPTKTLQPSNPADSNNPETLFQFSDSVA
# UniProt O43318, sequence (whole entry, looked up): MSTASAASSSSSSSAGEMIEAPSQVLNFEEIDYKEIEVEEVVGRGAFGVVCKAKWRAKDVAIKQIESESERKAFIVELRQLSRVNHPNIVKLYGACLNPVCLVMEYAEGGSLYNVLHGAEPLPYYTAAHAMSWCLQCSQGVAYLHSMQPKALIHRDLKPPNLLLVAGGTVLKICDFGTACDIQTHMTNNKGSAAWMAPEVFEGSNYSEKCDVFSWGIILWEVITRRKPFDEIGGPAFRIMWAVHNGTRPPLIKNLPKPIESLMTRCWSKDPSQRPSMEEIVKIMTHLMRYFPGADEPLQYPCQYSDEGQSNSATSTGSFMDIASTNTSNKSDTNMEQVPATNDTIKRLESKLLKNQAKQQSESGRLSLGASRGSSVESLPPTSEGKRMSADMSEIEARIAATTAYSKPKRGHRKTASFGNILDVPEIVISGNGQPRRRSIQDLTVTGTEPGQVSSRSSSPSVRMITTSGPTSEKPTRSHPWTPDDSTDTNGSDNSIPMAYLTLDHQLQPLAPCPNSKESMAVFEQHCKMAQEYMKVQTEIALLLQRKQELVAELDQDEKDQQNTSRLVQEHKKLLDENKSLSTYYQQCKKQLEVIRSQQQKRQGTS

# Series 1
# Structure (SMILES): CCC1(c2cccc(-c3cn(C)nc3C)c2)C2=C(Nc3n[nH]cc31)C(F)C(C)(C)CC2=O (single isomer, unassigned)
# Concentration: 1 µM
target,read-out,method,relative to,remaining binding [%]
"EPHA6 (Homo sapiens, UniProt Q9UF33)",binding,competition with immobilised ligand,,100
"MAP3K7 (Homo sapiens, UniProt O43318)",kinase binding,KINOMEscan,DMSO control,37
"Ribosomal protein S6 kinase alpha-5, C-terminal kinase domain (RPS6KA5, Homo sapiens, UniProt O75582)",binding,competition with immobilised ligand,,100
"TNNI3K (Homo sapiens, UniProt Q59H18)",binding,competition with immobilised ligand,,99
"CLK4 (Homo sapiens, UniProt Q9HAZ1)",kinase binding,KINOMEscan,DMSO control,100
"MAP2K5 (Homo sapiens, UniProt Q13163)",binding,competition with immobilised ligand,,76
"MAP3K6 (Homo sapiens, UniProt O95382)",binding,competition with immobilised ligand,,100
"MAP4K1 (Homo sapiens, UniProt Q92918)",kinase binding,KINOMEscan,DMSO control,91

# Series 2
# Structure (SMILES): C[C@@H]1CN(c2ccc(-c3cc(C(=O)NCCOCCOCCOCCOCCNC(=O)Cn4cc(-c5[nH]cc(C(=O)N[C@@H](CC(N)=O)c6ccc(F)c(Cl)c6)c5-c5ccc(Cl)cc5F)cn4)ccc3F)cc2NC(=O)c2c[nH]c(=O)cc2C(F)(F)F)C[C@H](C)N1C
# Read-out: thermal unfolding
# Method: differential scanning fluorimetry
# Concentration: 5.5 µM
# Reading: higher = more unfolded
# WDR5: WD repeat-containing protein 5 (WDR5, Homo sapiens, UniProt P61964)
# DCAF1: DDB1- and CUL4-associated factor 1 (DCAF1, Homo sapiens, UniProt Q9Y4B6)
# UniProt Q9Y4B6, sequence (whole entry, looked up): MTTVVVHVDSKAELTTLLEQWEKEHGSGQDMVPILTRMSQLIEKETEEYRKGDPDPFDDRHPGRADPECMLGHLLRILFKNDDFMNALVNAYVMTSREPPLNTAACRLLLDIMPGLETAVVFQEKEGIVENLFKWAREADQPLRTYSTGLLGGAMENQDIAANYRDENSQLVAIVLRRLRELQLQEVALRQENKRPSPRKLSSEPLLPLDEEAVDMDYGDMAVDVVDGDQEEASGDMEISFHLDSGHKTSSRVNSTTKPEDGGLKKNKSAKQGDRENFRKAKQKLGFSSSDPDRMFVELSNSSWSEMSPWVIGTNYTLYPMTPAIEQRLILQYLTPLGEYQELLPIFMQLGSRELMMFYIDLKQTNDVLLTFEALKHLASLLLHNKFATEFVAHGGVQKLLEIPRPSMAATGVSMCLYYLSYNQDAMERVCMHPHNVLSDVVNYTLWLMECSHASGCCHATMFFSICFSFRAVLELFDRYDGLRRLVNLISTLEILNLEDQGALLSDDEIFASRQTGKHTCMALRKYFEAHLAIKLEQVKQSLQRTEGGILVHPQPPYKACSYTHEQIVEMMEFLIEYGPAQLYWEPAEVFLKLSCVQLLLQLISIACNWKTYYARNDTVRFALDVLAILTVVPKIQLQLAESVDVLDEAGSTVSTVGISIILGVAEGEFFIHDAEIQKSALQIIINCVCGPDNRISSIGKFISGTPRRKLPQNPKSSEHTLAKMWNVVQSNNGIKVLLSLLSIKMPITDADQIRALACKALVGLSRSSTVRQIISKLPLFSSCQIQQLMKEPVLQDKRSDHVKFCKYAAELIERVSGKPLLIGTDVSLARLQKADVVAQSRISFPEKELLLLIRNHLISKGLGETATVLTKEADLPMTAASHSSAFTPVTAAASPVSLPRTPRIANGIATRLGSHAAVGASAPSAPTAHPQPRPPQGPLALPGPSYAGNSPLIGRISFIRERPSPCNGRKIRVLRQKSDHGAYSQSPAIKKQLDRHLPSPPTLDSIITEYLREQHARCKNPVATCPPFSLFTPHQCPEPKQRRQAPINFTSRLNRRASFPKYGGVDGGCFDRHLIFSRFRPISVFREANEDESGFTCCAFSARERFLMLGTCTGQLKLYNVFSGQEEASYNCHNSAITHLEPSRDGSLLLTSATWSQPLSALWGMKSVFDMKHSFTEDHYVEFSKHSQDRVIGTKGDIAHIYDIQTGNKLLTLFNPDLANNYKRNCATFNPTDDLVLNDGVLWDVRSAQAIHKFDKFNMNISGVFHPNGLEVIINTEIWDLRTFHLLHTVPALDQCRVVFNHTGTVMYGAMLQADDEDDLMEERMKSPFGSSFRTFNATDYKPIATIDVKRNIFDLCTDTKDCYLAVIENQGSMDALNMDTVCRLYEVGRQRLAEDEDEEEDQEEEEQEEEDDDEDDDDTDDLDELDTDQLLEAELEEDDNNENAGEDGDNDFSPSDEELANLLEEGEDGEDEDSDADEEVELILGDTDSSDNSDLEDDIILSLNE
target,temperature,SYPRO Orange fluorescence [a.u.]
WDR5,93.21 °C,40000
DCAF1,73.61 °C,50800
DCAF1,72.41 °C,52000
WDR5,27.2 °C,14800
WDR5,25.8 °C,14700
WDR5,70.41 °C,6980
WDR5,36.6 °C,14300
DCAF1,68.61 °C,55700

# Series 3
# SMILES: COCC1CC2C(CCC3C(O)CCC32)c2ccc(O)cc21 (stereo not shown)
cell line,method,measured,concentration,relative to,log2 fold change
PANC-1,DNA microarray,ACTB mRNA,25 µM,control,-0.717
SK-OV-3,DNA microarray,UBB,25 µM,untreated,-0.241
SK-OV-3,DNA microarray,UBD,100 µM,untreated,-0.82
SK-OV-3,DNA microarray,ADAMTS14,25 µM,untreated,1.9
PANC-1,DNA microarray,ACTB mRNA,100 µM,control,-0.701
SK-OV-3,microarray,CDC25B,25 µM,untreated,0.23
A549,DNA microarray,KIF20A,25 µM,untreated cells,0.0344 and -0.0971 and 0.0311 and -0.0113 and -0.0304
A549,microarray,OLIG2,25 µM,untreated,0

# Single results of other studies
SMILES,target,action,method,cell line,concentration,endpoint,result
Cn1cc(-c2cccc(CN3CCC4(CC3)COc3c4ccc4c3CN([C@@H]3CCC(=O)NC3=O)C4=O)c2)cn1,"CRBN/Zinc finger protein Helios (Homo sapiens, UniProt Q96SW2+Q9UKS7)",degrader,HiBiT,HEK293,333.3 nM,protein remaining,9.83% and 9.21%
